# Measurements pooled from the literature.
# Each line is one published result; not all experiments were run side by side.
# CDK5 with p35: Cyclin-dependent kinase 5, with p35 (CDK5, Homo sapiens, UniProt Q00535)
# CDK5 with p25: Cyclin-dependent kinase 5, with p25 (CDK5, Homo sapiens, UniProt Q00535)
Compound,target,read-out,action,tested at,together with,inhibition
NC(=O)C[C@H]1CCc2sc3ncnc(O[C@H]4CC[C@H](N5CCOCC5)CC4)c3c21,CDK5 with p35,enzyme activity,inhibitor,10 µM,,32%
CN1CCN(Cc2ccc(-c3ccc(CO[C@H]4CCC[C@@H]4NC(=O)c4cc(-c5cnn(C)c5)cnc4N)cc3)cc2)CC1,CDK5 with p35,enzyme activity,inhibitor,0.1 µM,,2%
C=CC(=O)Nc1cccc(-c2cnc3[nH]cc(C(=O)NC(C)(C)C)c3n2)c1,CDK5 with p25,kinase activity,,0.1 µM,,16%
COc1ccc(C(=O)/C=C/c2ccccc2-c2c[nH]c3ccc(C#N)cc23)c(O)c1,CDK5 with p35,enzyme activity,inhibitor,20 µM,,8%
Cc1cccc(O[C@H]2CCC[C@@H](C(C)CNCc3ccncc3)C2)c1 (relative stereo),CDK5 with p25,enzyme activity,inhibitor,10 µM,,0%
NC(=O)[C@@H](O)C[C@H]1CCc2sc3ncnc(O[C@H]4CC[C@H](N5CCOCC5)CC4)c3c21,CDK5 with p25,enzyme activity,inhibitor,10 µM,,17%
CN1CC[C@@H](COc2cnc(C#N)cc2-c2ccn3nc(NC(=O)C4CC4)cc3c2)C1,CDK5 with p25,enzyme activity,inhibitor,1 µM,,-6%
CCn1cc(C(=O)O)c(=O)c2c(N)c(F)c(NC3CCCCC3)cc21,CDK5 with p25,kinase activity,,0.1 µM,ATP at Km,20.8%
C=CC(=O)N1Cc2nc(-c3cc(-c4cc(Cl)cnc4Cl)c(F)cc3F)n(-c3ccncn3)c2C1,CDK5 with p35,cell-free assay,inhibitor,1 µM,,-0.7%

# Repeated from above:
Compound,target,read-out,action,tested at,together with,inhibition
C=CC(=O)Nc1cccc(-c2cnc3[nH]cc(C(=O)NC(C)(C)C)c3n2)c1,CDK5 with p25,kinase activity,,0.1 µM,,16%
